Results gathered from unrelated publications.
Each line is one published result; not all experiments were run side by side. Values joined by “and” are separate records of one study, mostly repeats; a detail may differ. ± marks the error that the study gave. ≈ marks a conversion by molar mass, not a printed value.

SMILES | target | assay | system | setting | scale | measurement | value
Cc1nn(CC(F)(F)F)cc1Nc1ncc(C2CC2)c(NCc2ccc(S(N)(=O)=O)cc2)n1 | 403 human wild-type kinases | scanMAX binding | – | 1 µM, hit below 10% of control | relative to: hits over kinases tested, direction not given | selectivity score S10 | 0.005
CSc1cc(Oc2ccnc3[nH]c(=O)cnc23)ccc1NC(=O)Nc1cc(C(C)(C)C)nn1-c1ccccc1 | Src family kinases | reverse-phase protein array | patient-derived cell | 1 µM, 4 h | relative to: DMSO | phospho-Src family Tyr416/total ratio | 0.26
[Co+2] | PP2C | enzyme activity | – | concentration not given | – | activity class | active
NS(=O)(=O)c1ccc(CNc2ccnc(Nc3cccc(CN4CCOCC4)c3)n2)cc1 | 403 human wild-type kinases | scanMAX | – | – | PoC below 10 | number of kinases bound | 3
COC(=O)c1cn(C)c2ccc(-c3cccnc3)cc12 | Gal4-VP16 | reporter gene, Gal4-VP16 control reporter | – | 10 µM | relative to: vehicle | activation | 0.9 fold
COc1cc(C(=O)O)cc(OC)c1O | gasdermin E (human) | inhibitor | – | 100 µM, 2 h | – | inhibition | 78.9%
OCC(CCc1ccc(O)cc1)c1ccc(O)cc1 (centres unmarked) | STAT3 | reporter gene, inhibitor | NCI-H460 | – | – | IC50 | 3.34 µg/mL (≈ 12.9 µM)
Cn1c(=O)c2[nH]cnc2n(C)c1=O | cGMP antibody | acetylated cGMP EIA | – | – | – | EC50 | > 1000 µM
Brc1cnc(Nc2cccc(CN3CCOCC3)c2)nc1NCCc1c[nH]cn1 | 403 human wild-type kinases | scanMAX | – | – | PoC below 10 | number of kinases bound | 94
C=CC(=O)N1[C@@H](c2ccc3c(c2)OCO3)c2[nH]c3ccccc3c2C[C@@H]1C(=O)NC | PQLC3 Cys135 human | cysteine IA-DTB labelling, covalent inhibitor, MS-ABPP | 22Rv1 | 20 µM, 3 h | – | inhibition | 45% and 44%
CC(=O)ON=C1C=CC(=C(C#N)c2ccccc2)C=C1 | pig GSK3 alpha/beta | enzyme activity, inhibitor, ADP-Glo | – | 20 µM, about MIC, together with: ATP 10 µM | – | remaining activity | 94%
[Mg+2] | PP2C | enzyme activity | – | concentration not given | – | activity class | active
CCCCCCCC(=O)c1cc(OC)c(OC)c(OC)c1CC(=O)OCC | Gal4-VP16 | reporter gene, Gal4-VP16 control reporter | – | 10 µM | relative to: vehicle | activation | 1.02 fold
c1cc(CN2CCOCC2)cc(Nc2nccc(NCCc3cnc[nH]3)n2)c1 | 403 human wild-type kinases | scanMAX | – | – | PoC below 10 | number of kinases bound | 9
c1coc(-c2n[nH]cc2-c2ccnc3ccccc23)c1 | BUB1 (Candida albicans) | kinase binding, MIB/MS competition | Candida albicans lysate | 10 µM | relative to: DMSO | log2 fold change | -0.05
O=c1c(O)c(-c2cc(O)c(O)c(O)c2)oc2cc(O)cc(O)c12 | gasdermin E (human) | inhibitor | – | 100 µM, 2 h | – | inhibition | 74.9%
O=C(NCCCNc1nc(Nc2cccc(NC(=O)N3CCCC3)c2)ncc1Br)C1CCC1 | 403 human wild-type kinases | scanMAX | – | – | PoC below 10 | number of kinases bound | 90
CCCCCCCC(=O)OC[C@H](COP(=O)(O)O[C@@H]1[C@H](O)[C@H](O)[C@@H](OP(=O)(O)O)[C@H](OP(=O)(O)O)[C@H]1O)OC(=O)CCCCCCC | Kv7.2/Kv7.3(EEE) mutant channel | channel open probability, activator, fitted PIP2 binding model | – | model 5 | relative to: channel without bound PIP2 | efficacy factor E2 | 0.11
NS(=O)(=O)c1ccc(CNc2ccnc(Nc3cccc(NC(=O)N4CCCC4)c3)n2)cc1 | 403 human wild-type kinases | scanMAX binding | – | 1 µM, hit below 10% of control | relative to: hits over kinases tested, direction not given | selectivity score S10 | 0.002
CCC(C)CNCC(=O)N1CCc2sccc2C1COc1cccc(C)c1 (centres unmarked) | Fyn | inhibitor | cells, COS-1, expressing Fyn | concentration not given | – | palmitoylation | inactive
O=C(NCCCNc1ccnc(Nc2cccc(NC(=O)N3CCCC3)c2)n1)C1CCC1 | 403 human wild-type kinases | scanMAX | – | – | PoC below 10 | number of kinases bound | 3
C=C1C(=O)O[C@@H]2C[C@@]3(C)CCCC(=C)[C@@H]3C[C@H]12 | Gal4-VP16 | reporter gene, Gal4-VP16 control reporter | – | 10 µM | relative to: vehicle | activation | 1.02 fold
Oc1ccccc1-c1n[nH]cc1-c1ccnc2ccccc12 | CMK1 (Candida albicans) | kinase binding, MIB/MS competition | Candida albicans lysate | 10 µM | relative to: DMSO | log2 fold change | 0.4
O=C(Nc1cccc(Nc2ncc(Br)c(NCCc3cnc[nH]3)n2)c1)N1CCCC1 | 403 human wild-type kinases | scanMAX binding | – | 1 µM, hit below 10% of control | relative to: hits over kinases tested, direction not given | selectivity score S10 | 0.02
OC[C@H]1O[C@@H]2O[C@H]3[C@H](O)[C@@H](O)[C@@H](O[C@H]4[C@H](O)[C@@H](O)[C@@H](O[C@H]5[C@H](O)[C@@H](O)[C@@H](O[C@H]6[C@H](O)[C@@H](O)[C@@H](O[C@H]7[C@H](O)[C@@H](O)[C@@H](O[C@H]8[C@H](O)[C@@H](O)[C@@H](O[C@H]1[C@H](O)[C@H]2O)O[C@@H]8CO)O[C@@H]7CO)O[C@@H]6CO)O[C@@H]5CO)O[C@@H]4CO)O[C@@H]3CO | LuxR | Escherichia coli sensor | – | 10 µM | higher = stronger induction | bioluminescence induction | 772 ± 31 RLU
CC(Nc1nc(N2CCCC2)nc2ccccc12)c1ccccc1 (centres unmarked) | importin α/β1 | cMyc nuclear import, high content imaging | HeLa Kyoto reporter | 0.158 µM, 2 h | – | cells with nuclear reporter | 83.9%
